Results of several laboratories.
Numbered parts are unrelated; each lists some results of a single study. Values joined by “and” are separate records of one study, mostly repeats; a detail may differ.
Sequence of UniProt Q96J92 (whole entry, looked up): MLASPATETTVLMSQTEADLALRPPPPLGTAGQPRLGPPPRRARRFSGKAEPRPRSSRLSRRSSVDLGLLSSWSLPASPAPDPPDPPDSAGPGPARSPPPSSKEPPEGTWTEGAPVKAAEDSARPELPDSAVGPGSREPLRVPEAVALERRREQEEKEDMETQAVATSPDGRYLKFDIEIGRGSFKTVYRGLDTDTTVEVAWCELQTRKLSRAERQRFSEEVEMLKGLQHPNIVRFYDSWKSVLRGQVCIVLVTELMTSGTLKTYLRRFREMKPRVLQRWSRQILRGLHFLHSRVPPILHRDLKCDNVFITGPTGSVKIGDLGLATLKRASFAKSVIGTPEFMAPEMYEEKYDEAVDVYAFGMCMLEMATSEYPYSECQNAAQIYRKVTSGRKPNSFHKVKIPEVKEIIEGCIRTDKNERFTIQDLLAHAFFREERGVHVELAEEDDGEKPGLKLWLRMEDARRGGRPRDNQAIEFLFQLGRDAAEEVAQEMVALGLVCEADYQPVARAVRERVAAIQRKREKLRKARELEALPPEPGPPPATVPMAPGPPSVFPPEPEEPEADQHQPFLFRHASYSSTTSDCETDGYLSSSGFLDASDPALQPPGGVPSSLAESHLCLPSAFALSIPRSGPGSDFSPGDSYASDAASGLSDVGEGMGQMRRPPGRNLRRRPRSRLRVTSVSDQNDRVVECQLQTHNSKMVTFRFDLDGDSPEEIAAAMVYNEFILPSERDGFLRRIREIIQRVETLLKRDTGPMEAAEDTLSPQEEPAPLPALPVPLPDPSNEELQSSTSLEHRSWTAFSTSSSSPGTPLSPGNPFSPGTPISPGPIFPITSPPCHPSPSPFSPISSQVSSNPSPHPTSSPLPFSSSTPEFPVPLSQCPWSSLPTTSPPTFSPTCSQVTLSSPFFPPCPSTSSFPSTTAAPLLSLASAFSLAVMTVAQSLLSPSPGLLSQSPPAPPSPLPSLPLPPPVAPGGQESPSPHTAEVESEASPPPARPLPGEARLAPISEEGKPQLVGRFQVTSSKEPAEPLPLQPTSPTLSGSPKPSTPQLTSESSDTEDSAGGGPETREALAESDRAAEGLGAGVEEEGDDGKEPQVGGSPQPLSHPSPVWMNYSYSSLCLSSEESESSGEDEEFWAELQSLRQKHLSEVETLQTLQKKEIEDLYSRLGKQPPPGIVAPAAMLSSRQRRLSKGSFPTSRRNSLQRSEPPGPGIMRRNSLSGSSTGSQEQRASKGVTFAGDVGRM
Sequence of UniProt Q9HBH9 (whole entry, looked up): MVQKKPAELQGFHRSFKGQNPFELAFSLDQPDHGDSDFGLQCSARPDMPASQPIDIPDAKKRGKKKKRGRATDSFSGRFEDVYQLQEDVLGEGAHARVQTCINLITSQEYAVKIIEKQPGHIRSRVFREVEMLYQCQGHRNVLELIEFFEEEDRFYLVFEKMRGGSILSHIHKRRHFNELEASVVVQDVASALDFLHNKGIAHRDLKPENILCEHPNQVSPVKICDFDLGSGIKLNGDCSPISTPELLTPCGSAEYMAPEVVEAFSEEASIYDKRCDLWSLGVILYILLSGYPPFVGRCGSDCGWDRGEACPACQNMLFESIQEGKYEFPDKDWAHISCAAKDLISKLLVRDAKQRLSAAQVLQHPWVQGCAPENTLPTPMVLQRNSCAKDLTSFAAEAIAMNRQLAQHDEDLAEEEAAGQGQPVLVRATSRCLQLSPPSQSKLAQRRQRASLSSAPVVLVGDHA
Sequence of UniProt P49840 (whole entry, looked up): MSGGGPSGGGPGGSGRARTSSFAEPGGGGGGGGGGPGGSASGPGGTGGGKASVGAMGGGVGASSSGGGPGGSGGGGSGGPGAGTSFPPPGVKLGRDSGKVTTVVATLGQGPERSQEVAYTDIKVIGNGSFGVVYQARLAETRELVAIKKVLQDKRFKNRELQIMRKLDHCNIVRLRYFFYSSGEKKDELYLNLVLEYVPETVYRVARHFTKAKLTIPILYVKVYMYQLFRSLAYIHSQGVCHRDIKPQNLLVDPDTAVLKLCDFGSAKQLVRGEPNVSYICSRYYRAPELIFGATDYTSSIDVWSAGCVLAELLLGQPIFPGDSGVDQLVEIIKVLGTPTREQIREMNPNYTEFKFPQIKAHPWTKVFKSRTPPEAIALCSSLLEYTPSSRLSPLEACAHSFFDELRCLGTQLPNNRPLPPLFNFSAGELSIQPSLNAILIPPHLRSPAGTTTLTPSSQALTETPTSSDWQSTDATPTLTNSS
Sequence of UniProt P48736 (whole entry, looked up): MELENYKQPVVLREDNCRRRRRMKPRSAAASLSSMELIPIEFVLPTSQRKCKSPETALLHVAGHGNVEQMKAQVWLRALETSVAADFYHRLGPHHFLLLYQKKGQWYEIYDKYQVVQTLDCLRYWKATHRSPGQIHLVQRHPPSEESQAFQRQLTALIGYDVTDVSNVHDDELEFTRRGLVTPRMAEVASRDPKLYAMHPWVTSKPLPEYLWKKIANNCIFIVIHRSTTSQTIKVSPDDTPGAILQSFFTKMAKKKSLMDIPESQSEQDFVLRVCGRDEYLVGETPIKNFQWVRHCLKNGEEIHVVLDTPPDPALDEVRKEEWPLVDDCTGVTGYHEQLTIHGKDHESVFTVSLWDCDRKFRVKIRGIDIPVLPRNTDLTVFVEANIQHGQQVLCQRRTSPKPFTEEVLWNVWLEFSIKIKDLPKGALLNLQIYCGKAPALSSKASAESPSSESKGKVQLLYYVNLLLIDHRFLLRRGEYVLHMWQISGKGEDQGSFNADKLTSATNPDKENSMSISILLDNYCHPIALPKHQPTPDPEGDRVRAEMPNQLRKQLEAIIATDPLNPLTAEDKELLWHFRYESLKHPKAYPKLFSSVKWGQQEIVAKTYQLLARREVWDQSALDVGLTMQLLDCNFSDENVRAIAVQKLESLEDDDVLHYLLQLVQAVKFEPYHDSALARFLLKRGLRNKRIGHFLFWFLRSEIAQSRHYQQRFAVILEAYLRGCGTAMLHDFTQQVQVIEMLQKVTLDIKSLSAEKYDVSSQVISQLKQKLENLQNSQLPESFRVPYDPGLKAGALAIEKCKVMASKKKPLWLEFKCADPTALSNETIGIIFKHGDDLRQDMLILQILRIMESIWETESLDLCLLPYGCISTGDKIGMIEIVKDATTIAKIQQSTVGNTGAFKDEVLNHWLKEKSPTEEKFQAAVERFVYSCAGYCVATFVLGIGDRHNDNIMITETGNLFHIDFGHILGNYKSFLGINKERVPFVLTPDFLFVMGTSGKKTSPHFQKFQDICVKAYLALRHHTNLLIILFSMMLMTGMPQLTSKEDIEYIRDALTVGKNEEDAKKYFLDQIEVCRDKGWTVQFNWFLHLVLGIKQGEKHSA
Sequence of UniProt Q9HAZ1 (whole entry, looked up): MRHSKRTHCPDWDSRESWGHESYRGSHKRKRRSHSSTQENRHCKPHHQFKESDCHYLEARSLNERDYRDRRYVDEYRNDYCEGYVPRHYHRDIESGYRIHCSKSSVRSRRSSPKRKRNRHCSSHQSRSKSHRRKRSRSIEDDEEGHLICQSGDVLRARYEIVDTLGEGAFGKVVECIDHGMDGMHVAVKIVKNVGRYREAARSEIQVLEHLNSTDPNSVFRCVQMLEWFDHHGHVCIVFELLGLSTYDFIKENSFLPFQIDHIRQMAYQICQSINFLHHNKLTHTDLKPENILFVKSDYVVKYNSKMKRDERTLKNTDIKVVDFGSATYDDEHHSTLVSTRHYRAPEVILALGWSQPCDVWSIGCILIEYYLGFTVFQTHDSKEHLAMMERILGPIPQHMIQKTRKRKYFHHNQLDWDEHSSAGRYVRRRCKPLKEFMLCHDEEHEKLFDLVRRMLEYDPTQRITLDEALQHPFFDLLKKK

Sample 1
Target: Protein kinase C epsilon type (PRKCE, Homo sapiens, UniProt Q02156)
Observed: enzyme activity
Mode: inhibitor
Tested at: 0.5 µM
Reference: control
Construct (Q02156 1-737): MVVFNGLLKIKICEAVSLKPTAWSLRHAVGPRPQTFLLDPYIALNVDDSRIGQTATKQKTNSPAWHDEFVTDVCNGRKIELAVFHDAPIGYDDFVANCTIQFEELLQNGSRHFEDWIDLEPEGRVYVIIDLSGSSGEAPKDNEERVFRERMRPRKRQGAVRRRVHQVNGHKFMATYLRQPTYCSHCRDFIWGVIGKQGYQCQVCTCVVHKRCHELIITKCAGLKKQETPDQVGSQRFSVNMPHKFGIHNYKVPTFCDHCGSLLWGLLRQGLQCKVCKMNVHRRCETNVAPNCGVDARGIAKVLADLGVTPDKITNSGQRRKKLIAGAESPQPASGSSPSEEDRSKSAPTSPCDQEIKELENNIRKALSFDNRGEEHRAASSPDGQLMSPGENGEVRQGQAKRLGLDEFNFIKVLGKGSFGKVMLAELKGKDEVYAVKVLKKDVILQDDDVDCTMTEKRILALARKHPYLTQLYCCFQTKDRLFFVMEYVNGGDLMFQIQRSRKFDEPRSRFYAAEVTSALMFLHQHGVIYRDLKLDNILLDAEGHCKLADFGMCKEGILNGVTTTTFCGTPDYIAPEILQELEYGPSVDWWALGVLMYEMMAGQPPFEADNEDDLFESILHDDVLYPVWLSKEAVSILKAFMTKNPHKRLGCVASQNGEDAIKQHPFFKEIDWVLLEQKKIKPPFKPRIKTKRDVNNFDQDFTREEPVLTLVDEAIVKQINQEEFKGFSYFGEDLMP
`O=C1Cc2c([nH]c3ccc([N+](=O)[O-])cc23)-c2ccccc2N1` has a remaining activity of 111%.
For `Cc1cc(Nc2nc(-c3ccccc3)nc3ccccc23)n[nH]1`, the remaining activity was 87.1%.
`Nc1ncnc2c1cnn2-c1ccccc1` gave a remaining activity of 98.3%.
For `COc1cc(Nc2c(C#N)cnc3cc(OCCCN4CCN(C)CC4)c(OC)cc23)c(Cl)cc1Cl`, the remaining activity was 78%.
The remaining activity of `COc1ccc(S(=O)(=O)N(CCO)c2ccccc2CN(C)CC=Cc2ccc(Cl)cc2)cc1` is reported as 97.2%.
`CC(C)(C)n1nc(Cc2cccc3ccccc23)c2c(N)ncnc21` gave a remaining activity of 101%.
`O=S(=O)(NCCNC/C=C/c1ccc(Br)cc1)c1cccc2cnccc12` has a remaining activity of 86.4%.
The remaining activity of `Cc1ccc(NC2=CC(=O)c3sc(C)nc3C2=O)cc1` is reported as 96.3%.
`N#CC(=C(N)Sc1ccc(N)cc1)c1ccccc1C(F)(F)F` gave a remaining activity of 104%.
For `CCCC(=O)Oc1ccc2[nH]c(C(=O)c3cc4ccccc4[nH]3)cc2c1`, the remaining activity was 91%.
`Fc1ccc(-c2nc3n(c2-c2ccncc2)CCS3)cc1` has a remaining activity of 97.7%.
The remaining activity of `Oc1ccc(Nc2nc(-c3ccc(Cl)cc3)cs2)cc1` is reported as 99.6%.
For `O=C1NC(=O)C(c2c[nH]c3ccccc23)=C1c1c[nH]c2ccccc12`, the remaining activity was 24%.
The remaining activity of `NC(=O)c1ccc(N(C(N)=O)c2c(F)cccc2F)nc1-c1ccc(F)cc1F` is reported as 101%.
The remaining activity of `Nc1nccc(-c2c(-c3ccc(F)cc3)ncn2C2CCNCC2)n1` is reported as 105%.
With `CCc1[nH]c(-c2ccc(OC)cc2)nc1-c1ccncc1` the remaining activity was 101%.
For `Cc1cncc2cccc(S(=O)(=O)N3CCCN(C(=O)CN)C[C@@H]3C)c12`, the remaining activity was 52.4%.
`CC[n+]1c(/C=C/N(C)c2ccccc2)n(-c2ccccc2)c2ccc(-c3nc4ccccc4s3)cc21` gave a remaining activity of 97.7%.
For `CC(=O)c1ccc(N2CCOCC2)cc1O`, the remaining activity was 93.4%.
With `CC#CC(=O)Nc1cc2c(Nc3ccc(F)c(Cl)c3)ncnc2cn1` the remaining activity was 88.3%.
With `CSc1nc(-c2ccnc(N[C@@H](C)c3ccccc3)c2)c(-c2ccc(F)cc2)[nH]1` (racemic) the remaining activity was 87.6%.

Sample 2
Structure (SMILES): C=CCc1ccc(O)c(-c2cc(CC=C)ccc2O)c1
Observed: chloride current
Technique: whole-cell voltage clamp
ANO1 del476-501/R541I: Anoctamin-1 (ANO1, Homo sapiens, UniProt Q5XXA6, del476-501/R541I)
Sequence of UniProt Q5XXA6 (whole entry, unmodified, looked up): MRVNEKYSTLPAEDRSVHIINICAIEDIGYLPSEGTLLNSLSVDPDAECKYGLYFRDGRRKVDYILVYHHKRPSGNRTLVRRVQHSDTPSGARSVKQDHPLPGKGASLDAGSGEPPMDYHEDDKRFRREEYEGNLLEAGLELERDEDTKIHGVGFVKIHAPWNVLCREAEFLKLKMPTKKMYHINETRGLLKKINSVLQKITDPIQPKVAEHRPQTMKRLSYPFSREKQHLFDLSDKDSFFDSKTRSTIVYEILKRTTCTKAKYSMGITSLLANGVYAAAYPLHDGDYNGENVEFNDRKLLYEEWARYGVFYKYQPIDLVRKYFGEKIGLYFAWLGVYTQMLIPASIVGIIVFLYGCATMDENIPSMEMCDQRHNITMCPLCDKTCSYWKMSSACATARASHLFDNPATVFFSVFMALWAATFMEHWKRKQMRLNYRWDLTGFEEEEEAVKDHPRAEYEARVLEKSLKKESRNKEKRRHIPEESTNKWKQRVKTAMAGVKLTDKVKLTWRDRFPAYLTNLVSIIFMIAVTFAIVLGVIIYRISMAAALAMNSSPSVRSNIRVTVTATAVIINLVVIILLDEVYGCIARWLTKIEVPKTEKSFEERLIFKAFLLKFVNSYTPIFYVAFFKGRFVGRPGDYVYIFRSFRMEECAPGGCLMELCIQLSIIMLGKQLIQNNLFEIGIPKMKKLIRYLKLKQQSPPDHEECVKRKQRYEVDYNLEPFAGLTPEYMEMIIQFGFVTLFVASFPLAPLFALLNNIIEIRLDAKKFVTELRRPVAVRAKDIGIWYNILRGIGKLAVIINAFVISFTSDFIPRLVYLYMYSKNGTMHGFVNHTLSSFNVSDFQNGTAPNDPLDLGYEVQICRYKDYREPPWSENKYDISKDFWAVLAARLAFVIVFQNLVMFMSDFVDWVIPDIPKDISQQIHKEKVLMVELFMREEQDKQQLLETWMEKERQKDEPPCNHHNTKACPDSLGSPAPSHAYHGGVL
ANO1 del476-501/R541D: Anoctamin-1 (ANO1, Homo sapiens, UniProt Q5XXA6, del476-501/R541D)
ANO1 del476-501/E649K: Anoctamin-1 (ANO1, Homo sapiens, UniProt Q5XXA6, del476-501/E649K)
ANO1 del476-501/R541K: Anoctamin-1 (ANO1, Homo sapiens, UniProt Q5XXA6, del476-501/R541K)
ANO1 del476-501/R541I; inhibitor; R515I mutant at -80 mV — IC50: 45 µM.
It gave 262 µM for IC50 (Anoctamin-1 (ANO1, Homo sapiens, UniProt Q5XXA6, del476-501/K629I); inhibitor; 60 mV holding voltage).
Anoctamin-1 (ANO1, Homo sapiens, UniProt Q5XXA6, del476-501); membrane voltage -100 mV, with: 300 nM Ca2+ — IC50: 31.4 µM.
For Anoctamin-1 (ANO1, Homo sapiens, UniProt Q5XXA6, del476-501/K629R); inhibitor; 20 mV holding voltage: IC50 read 162 µM.
ANO1 del476-501/R541D; inhibitor; R515D mutant at -60 mV — IC50: 157 µM.
Anoctamin-1 (ANO1, Homo sapiens, UniProt Q5XXA6, del476-501/E649D); inhibitor; E623D mutant at -40 mV — IC50: 41.9 µM.
ANO1 del476-501/R541I; inhibitor; R515I mutant at 40 mV — IC50: 53.1 µM.
For ANO1 del476-501/E649K; inhibitor; E623K mutant at 100 mV: IC50 read 128 µM.
It gave 210 µM for IC50 (Anoctamin-1 (ANO1, Homo sapiens, UniProt Q5XXA6, del476-501/M544I); inhibitor; 60 mV holding voltage).
For ANO1 del476-501/E649K; inhibitor; E623K mutant at -40 mV: IC50 read 140 µM.
Anoctamin-1 (ANO1, Homo sapiens, UniProt Q5XXA6, del476-501/F803A); membrane voltage 20 mV — IC50: 19.2 µM.
The IC50 was 124 µM (ANO1 del476-501/E649K; inhibitor; E623K mutant at 80 mV).
Anoctamin-1 (ANO1, Homo sapiens, UniProt Q5XXA6, del476-501/F646A); membrane voltage 60 mV — IC50: 22.2 µM.
It gave 121 µM for IC50 (Anoctamin-1 (ANO1, Homo sapiens, UniProt Q5XXA6, del476-501/E649I); inhibitor; mutant E623I).
For ANO1 del476-501/R541D; inhibitor; R515D mutant at -40 mV: IC50 read 131 µM.
For ANO1 del476-501/R541K; inhibitor; R515K mutant at 60 mV: IC50 read 20.4 µM.
The IC50 was 18.9 µM (ANO1 del476-501/R541K; inhibitor; R515K mutant at -60 mV).

Sample 3
Structure (SMILES): O=C(O)[C@H]1[C@H](Cn2nnc3ccccc3c2=O)CC[C@@H]1C(=O)c1ccc(OCCC2CCOCC2)cc1
Observed: cell-free assay
Technique: competition with immobilised ligand
Tested at: 1 µM
The remaining binding was 90% (PIK3CG (Homo sapiens, UniProt P48736)).
For STK36 (Homo sapiens, UniProt Q9NRP7): remaining binding read 100%.
The remaining binding was 83% (MKNK2 (Homo sapiens, UniProt Q9HBH9)).
GSK3A (Homo sapiens, UniProt P49840) — remaining binding: 74%.
For MAPK4 (Homo sapiens, UniProt P31152): remaining binding read 82%.
It gave 100% for remaining binding (RIOK1 (Homo sapiens, UniProt Q9BRS2)).
It gave 94% for remaining binding (TBK1 (Homo sapiens, UniProt Q9UHD2)).
SRPK2 (Homo sapiens, UniProt P78362) — remaining binding: 100%.
Ribosomal protein S6 kinase alpha-2, N-terminal kinase domain (RPS6KA2, Homo sapiens, UniProt Q15349) — remaining binding: 90%.
It gave 100% for remaining binding (MET (Homo sapiens, UniProt P08581, M1250T)).
The remaining binding was 100% (SIK2 (Homo sapiens, UniProt Q9H0K1)).
FLT3 (Homo sapiens, UniProt P36888, ITD) — remaining binding: 83%.
For Tyrosine-protein kinase ABL1, phosphorylated (ABL1, Homo sapiens, UniProt P00519, Y253F): remaining binding read 100%.
COQ8B (Homo sapiens, UniProt Q96D53) — remaining binding: 87%.
The remaining binding was 100% (CLK4 (Homo sapiens, UniProt Q9HAZ1)).
It gave 91% for remaining binding (WNK4 (Homo sapiens, UniProt Q96J92)).
NEK5 (Homo sapiens, UniProt Q6P3R8) — remaining binding: 97%.

Sample 4
SMILES: CC(C)(C)c1cnc(CSc2cnc(NC(=O)C3CCN(CCCCCCCCSc4cccc5c4CN(C4CCC(=O)NC4=O)C5=O)CC3)s2)o1 (centres unmarked)
It gave 95.9% and 95.2% for viability (HuT78; trypan blue exclusion; 10 nM, 48 h; reference: untreated control).
It gave 78.3% and 82.5% for viability (HH; CCK-8; 50 nM).
The viability was 101% and 96.8% (HH; CCK-8; 10 nM).
The viability was 15.2% (HuT78; cell growth or viability, trypan blue; 0.5 µM, 48 h).
It gave 0% for viability (HH; CCK-8; 500 nM).
The viability was 69% and 60.5% (HuT78; trypan blue exclusion; 100 nM, 48 h; reference: untreated control).
The viability was 20.1% and 17.7% (HuT78; trypan blue exclusion; 500 nM, 48 h; reference: untreated control).
For HH; CCK-8; 200 nM: viability read 0%.
For HuT78; cell growth or viability, trypan blue; 0.1 µM, 48 h: viability read 57.4%.
For HuT78; trypan blue exclusion; 50 nM, 48 h; reference: untreated control: viability read 87.4% and 81.3%.
